Published values from different studies.
Parts stem from different laboratories: compare values within a part only.
Chain of UniProt Q9BYT3 (whole entry, looked up): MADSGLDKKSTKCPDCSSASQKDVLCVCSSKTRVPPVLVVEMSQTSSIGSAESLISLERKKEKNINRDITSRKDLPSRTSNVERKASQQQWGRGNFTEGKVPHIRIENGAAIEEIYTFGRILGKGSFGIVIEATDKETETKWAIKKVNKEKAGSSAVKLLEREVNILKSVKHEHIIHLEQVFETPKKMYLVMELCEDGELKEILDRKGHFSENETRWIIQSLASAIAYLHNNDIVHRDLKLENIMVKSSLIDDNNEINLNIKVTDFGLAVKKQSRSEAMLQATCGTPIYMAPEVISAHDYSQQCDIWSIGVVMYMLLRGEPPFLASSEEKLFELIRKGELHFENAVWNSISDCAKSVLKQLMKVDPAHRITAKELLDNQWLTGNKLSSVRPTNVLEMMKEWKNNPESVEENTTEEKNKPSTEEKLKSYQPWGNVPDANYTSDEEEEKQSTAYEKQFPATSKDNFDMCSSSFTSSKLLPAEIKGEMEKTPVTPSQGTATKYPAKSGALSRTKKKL
Chain of UniProt P15735 (whole entry, looked up): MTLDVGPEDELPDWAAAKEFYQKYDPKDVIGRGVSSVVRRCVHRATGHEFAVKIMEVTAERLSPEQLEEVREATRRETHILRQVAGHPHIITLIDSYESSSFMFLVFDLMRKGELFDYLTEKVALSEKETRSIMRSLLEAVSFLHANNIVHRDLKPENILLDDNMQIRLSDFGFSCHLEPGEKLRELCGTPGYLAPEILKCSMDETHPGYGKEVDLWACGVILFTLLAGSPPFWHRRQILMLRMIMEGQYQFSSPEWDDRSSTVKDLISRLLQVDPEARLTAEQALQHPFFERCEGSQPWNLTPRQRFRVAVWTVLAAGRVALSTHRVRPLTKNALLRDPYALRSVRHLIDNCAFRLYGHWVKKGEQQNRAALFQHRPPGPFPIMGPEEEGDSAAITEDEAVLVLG
Chain of UniProt Q8N4C8 (whole entry, looked up): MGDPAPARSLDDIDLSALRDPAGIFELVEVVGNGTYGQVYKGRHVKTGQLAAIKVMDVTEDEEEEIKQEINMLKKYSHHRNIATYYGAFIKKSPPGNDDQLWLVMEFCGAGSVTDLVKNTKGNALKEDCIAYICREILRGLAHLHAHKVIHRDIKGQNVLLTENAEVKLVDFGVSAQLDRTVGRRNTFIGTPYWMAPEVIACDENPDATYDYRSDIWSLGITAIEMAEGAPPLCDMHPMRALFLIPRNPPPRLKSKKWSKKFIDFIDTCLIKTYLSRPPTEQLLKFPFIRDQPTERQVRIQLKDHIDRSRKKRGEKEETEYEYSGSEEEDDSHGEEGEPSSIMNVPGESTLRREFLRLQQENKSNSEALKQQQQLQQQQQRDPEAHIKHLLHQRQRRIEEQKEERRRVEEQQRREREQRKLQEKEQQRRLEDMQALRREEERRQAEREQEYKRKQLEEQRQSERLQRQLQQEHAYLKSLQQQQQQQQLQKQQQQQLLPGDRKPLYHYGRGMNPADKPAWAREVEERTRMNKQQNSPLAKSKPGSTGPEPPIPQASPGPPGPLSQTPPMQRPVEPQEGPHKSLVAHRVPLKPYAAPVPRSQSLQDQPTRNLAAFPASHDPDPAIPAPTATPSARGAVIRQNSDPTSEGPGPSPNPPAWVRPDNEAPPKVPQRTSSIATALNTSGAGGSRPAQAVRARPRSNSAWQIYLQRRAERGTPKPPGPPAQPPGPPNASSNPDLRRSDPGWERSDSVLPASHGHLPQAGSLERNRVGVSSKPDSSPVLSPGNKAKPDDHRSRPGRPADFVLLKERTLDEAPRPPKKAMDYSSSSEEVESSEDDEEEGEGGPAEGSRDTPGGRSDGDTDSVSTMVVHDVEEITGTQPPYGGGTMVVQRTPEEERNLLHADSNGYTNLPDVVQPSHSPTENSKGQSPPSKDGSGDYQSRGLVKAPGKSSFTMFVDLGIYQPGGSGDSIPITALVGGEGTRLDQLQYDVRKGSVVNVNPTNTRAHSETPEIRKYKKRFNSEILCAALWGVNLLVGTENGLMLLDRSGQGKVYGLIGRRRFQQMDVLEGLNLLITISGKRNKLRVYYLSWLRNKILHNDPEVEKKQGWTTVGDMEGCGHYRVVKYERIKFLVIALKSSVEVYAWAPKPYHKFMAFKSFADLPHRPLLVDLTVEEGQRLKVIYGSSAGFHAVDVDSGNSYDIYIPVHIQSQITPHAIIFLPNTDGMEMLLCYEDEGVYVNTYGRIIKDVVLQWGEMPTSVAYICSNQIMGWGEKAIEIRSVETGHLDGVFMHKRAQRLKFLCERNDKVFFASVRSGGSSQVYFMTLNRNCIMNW
Chain of UniProt P11802 (whole entry, looked up): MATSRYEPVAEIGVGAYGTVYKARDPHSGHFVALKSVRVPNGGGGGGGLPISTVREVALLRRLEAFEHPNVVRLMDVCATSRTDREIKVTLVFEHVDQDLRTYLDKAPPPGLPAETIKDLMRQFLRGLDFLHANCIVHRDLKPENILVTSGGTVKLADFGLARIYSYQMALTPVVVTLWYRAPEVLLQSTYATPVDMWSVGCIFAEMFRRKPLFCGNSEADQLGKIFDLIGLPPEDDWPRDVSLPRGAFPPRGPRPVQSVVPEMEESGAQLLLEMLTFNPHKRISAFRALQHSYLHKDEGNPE
Chain of UniProt P22607 (whole entry, unmodified, looked up): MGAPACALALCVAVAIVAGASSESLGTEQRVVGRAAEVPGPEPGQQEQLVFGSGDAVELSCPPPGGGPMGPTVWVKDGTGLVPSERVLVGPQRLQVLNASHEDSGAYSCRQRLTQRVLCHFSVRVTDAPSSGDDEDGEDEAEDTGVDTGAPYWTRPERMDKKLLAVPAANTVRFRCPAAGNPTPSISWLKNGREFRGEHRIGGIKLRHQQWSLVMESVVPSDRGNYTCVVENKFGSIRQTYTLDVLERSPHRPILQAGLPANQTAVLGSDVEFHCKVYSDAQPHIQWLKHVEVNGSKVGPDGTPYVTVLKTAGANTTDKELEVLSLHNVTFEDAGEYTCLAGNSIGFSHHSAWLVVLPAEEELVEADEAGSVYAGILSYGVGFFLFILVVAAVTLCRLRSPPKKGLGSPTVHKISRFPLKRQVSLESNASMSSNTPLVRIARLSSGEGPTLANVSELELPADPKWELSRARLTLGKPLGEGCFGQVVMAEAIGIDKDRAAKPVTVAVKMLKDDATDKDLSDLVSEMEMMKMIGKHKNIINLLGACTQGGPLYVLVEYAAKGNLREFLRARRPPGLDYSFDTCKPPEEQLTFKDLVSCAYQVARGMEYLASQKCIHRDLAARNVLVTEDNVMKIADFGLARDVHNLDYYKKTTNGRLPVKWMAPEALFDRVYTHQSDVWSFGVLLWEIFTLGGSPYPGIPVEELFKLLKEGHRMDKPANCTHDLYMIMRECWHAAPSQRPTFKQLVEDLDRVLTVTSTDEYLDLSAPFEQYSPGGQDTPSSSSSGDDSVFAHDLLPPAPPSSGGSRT

Study 1
Compound: Cc1c(NC(=O)c2cc(C(N)=O)nc3cc(F)ccc23)c(C(F)(F)F)nn1Cc1ccc(C#N)cc1
Read-out: cell-free assay
Method: competition with immobilised ligand
Concentration: 1 µM
Quantity: remaining binding
Fibroblast growth factor receptor 3 (FGFR3, Homo sapiens, UniProt P22607, G697C): 89%
Cyclin-dependent kinase 4, with cyclin D1 (CDK4, Homo sapiens, UniProt P11802): 87%
Serine/threonine-protein kinase 33 (STK33, Homo sapiens, UniProt Q9BYT3): 80%
Phosphorylase b kinase gamma catalytic chain, liver/testis isoform (PHKG2, Homo sapiens, UniProt P15735): 94%
Misshapen-like kinase 1 (MINK1, Homo sapiens, UniProt Q8N4C8): 89%

Study 2
Target: Histone acetyltransferase KAT6A, winged helix 2, GST fusion (KAT6A, Homo sapiens, UniProt Q92794, residues 85-181)
Method: protein binding microarray
Molecule type: double-stranded DNA, one strand shown
Sample: in vitro
Concentration: not given
Setting: 8-mer, flanks averaged, mean of 2 arrays, mostly near background
Reference: not given
Direction: higher = stronger binding
Quantity: E-score
Target sequence (chain): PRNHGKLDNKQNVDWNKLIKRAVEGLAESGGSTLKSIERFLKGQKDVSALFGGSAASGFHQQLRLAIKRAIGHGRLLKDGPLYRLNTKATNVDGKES
ACTATGCT: 0.0855
GCAGGGAA: -0.0535
CGAGTATA: -0.0257
GACTGGAC: -0.0154
ATTAGGGC: -0.0448
GAACAGTC: -0.14
AGATCAAC: -0.00775
CGCAGGGC: 0.232

Study 3
Target: Serine/threonine-protein kinase PAK 5 (PAK5, Homo sapiens, UniProt Q9P286)
Chain of UniProt Q9P286 (whole entry, looked up): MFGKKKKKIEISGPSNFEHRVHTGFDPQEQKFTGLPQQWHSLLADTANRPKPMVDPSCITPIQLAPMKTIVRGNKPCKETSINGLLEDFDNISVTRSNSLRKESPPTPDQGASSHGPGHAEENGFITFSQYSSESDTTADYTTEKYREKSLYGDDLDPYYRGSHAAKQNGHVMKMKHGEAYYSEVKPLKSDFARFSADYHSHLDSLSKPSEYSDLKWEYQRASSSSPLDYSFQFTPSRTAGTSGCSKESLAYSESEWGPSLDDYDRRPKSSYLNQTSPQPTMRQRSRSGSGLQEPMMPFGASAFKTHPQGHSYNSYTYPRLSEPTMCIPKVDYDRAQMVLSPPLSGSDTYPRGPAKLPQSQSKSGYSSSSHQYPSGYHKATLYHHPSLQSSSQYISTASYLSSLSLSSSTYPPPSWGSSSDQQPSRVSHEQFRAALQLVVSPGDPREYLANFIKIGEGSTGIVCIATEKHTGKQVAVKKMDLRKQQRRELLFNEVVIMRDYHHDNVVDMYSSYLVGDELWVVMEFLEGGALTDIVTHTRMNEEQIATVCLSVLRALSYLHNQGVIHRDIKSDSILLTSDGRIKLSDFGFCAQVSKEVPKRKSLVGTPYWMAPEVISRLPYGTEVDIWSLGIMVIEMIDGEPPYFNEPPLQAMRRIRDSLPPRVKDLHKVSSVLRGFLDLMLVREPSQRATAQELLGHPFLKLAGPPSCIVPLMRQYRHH
Read-out: enzyme activity
Mode: inhibitor
Concentration: 0.5 µM
Reference: control
Quantity: remaining activity
CCCC(=O)Oc1ccc2[nH]c(C(=O)c3cc4ccccc4[nH]3)cc2c1: 91%
CC(C)(C)n1nc(Cc2cccc3ccccc23)c2c(N)ncnc21: 92.9%
O=C1NC(=O)C(c2c[nH]c3ccccc23)=C1c1c[nH]c2ccccc12: 104%
CCc1[nH]c(-c2ccc(OC)cc2)nc1-c1ccncc1: 101%

Study 4
Target: Centromere-binding protein 1, full length, N-terminal tag (CBF1, Saccharomyces cerevisiae, UniProt P17106, residues 1-351)
Chain of UniProt P17106 (whole entry, looked up): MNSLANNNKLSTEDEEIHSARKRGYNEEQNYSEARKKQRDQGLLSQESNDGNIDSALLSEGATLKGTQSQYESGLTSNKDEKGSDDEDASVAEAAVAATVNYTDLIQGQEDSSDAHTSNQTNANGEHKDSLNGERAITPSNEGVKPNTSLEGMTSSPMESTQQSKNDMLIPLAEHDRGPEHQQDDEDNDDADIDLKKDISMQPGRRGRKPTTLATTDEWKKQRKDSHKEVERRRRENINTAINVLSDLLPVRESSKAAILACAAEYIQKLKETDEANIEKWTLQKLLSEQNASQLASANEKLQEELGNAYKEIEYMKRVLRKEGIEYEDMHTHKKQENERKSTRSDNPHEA
Method: protein-binding microarray
Molecule type: double-stranded DNA, one strand shown
Sample: in vitro
Concentration: 0.8 µM
Setting: whole 60-bp probe, no competitor
Direction: higher = stronger binding
Quantity: fluorescence intensity
GAACCTATGCGCCTAAACGTCACCGTCTAACCTTAGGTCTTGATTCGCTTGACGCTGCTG: 530 a.u.
GAATACTATTTTCATCAGGGCCAACAAAAAAAATAGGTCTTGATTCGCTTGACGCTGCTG: 543 a.u.
CTACACGAATAACATCACGAAATTTATCGACAGTTCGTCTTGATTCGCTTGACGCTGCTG: 567 a.u.
GAAACGAAAATAAACCACATGGGAATATGTTAATAGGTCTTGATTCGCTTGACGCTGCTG: 656 a.u.
GAAACCATAACACCCGTGATGACAACAACAGGATAGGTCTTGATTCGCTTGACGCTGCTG: 846 a.u.
GAAGTTAACTTTCATCTGATCAGGAATATGAAATAGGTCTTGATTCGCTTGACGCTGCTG: 700 a.u.
GAAGCCTTTTCAGAGGTGATGAGCAATCTCGATTAGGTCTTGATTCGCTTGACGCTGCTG: 532 a.u.
TGTACGAAGCTATACGTGATGGTTATAGTAGTTAGGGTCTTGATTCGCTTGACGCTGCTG: 603 a.u.

A few entries again (study 4):
GAAACGAAAATAAACCACATGGGAATATGTTAATAGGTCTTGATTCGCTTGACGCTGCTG: 656 a.u.
GAAACCATAACACCCGTGATGACAACAACAGGATAGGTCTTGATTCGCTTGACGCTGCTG: 846 a.u.
